# Measurements pooled from the literature.
# Protocols differ between the studies behind these lines. “And” joins repeats or separate records; there may be more than shown. Numbers after ± are the reported error.
SMILES,organism,assay,test system,conditions,how to read,quantity,value
CCCC(C)Oc1cccc(NC(=O)c2cccnc2)c1 (centres unmarked),Saccharomyces cerevisiae,,S288c wild type,,,MIC50,16 µg/mL
CN(C(=O)c1ccn2ncc(-c3ccc(C(N)=O)cc3)c2c1)c1ccc(C#N)cn1,Cryptosporidium parvum,,"UGA1 Nluc, IFN-gamma knockout C57BL/6 mice, faeces","oral, 10 mg/kg daily, 288 h post infection, treatment days 11-17",higher means more parasites,faecal Nluc luminescence,13600 a.u. and 165 a.u. and 1970 a.u. and 9400 a.u. and 1290 a.u.
COc1ccc(Cn2c3cc(=O)n(Cc4cccc(Cl)n4)c(C)c3c(=O)n2-c2ccccn2)cc1,human respiratory syncytial virus,,recombinant reporter virus,"concentration not given, scale 0 to 100, added: adenosine 3.7 µM",,normalized viral replication,0
CC[C@H](C)CCCCC(=O)N[C@@H](CCN)C(=O)N[C@H](C(=O)N[C@@H](CCN)C(=O)N[C@H]1CCNC(=O)[C@H]([C@@H](C)O)NC(=O)[C@H](CCN)NC(=O)[C@H](CCN)NC(=O)[C@H](CC(C)C)NC(=O)[C@@H](CC(C)C)NC(=O)[C@H](CCN)NC1=O)[C@@H](C)O,Escherichia coli,daily serial passaging,ATCC 8739,"highest sub-MIC, 7 days",baseline: initial MIC,MIC fold change,1.37
O=S(=O)(c1ccc(-c2ccc3ncnc(Nc4ccc(OCc5cccc(F)c5)c(Cl)c4)c3c2)cc1)N1CCSCC1,Trypanosoma cruzi,intracellular amastigote growth,"NIH 3T3, Tulahuen, β-galactosidase-expressing","10 µM, 96 h",,inhibition,18%
CN(C)c1nc(NCc2ccccc2F)c(/N=N/c2ccc(Cl)cc2)c(N(C)C)n1,Ostrinia furnacalis,leaf dipping,,"50 mg/L, 96 h",,mortality,70.7 ± 5.8%
CCC(=O)OCCSC[C@H](N)C(=O)N[C@H](CCN)C(=O)N[C@@H](CCN)C(=O)N[C@@H](CCN)C(=O)N[C@@H](CC(C)C)C(=O)N[C@H](Cc1ccccc1)C(=O)N[C@@H](CCN)C(=O)N[C@@H](CCN)C(=O)N[C@@H](CC(C)C)C(N)=O,Acinetobacter calcoaceticus,BHI agar spot plating,,"24 h, 37 °C",,MBC,> 128 µM
CC(C)[C@H]1NC(=O)[C@H](Cc2ccccc2)NC(=O)[C@@H](C(C)C)NC(=O)[C@@H](C)NC(=O)[C@H](CO)NC(=O)[C@@H](Cc2c(-c3ccc(C4CCCCC4)cc3)[nH]c3ccccc23)NC(=O)[C@@H](CO)NC1=O,Mycobacterium marinum,,,,,MIC90,> 100 µM
CNCCO.O=C(O)C(Cl)Cl,Solanum nigrum,herbicidal activity,,"15 mg/mL, 21 days, post-emergence greenhouse",,inhibition,0%
O=C(Oc1cc(OC(=O)c2cc(O)c(O)c(O)c2)c2ccccc2c1)c1cc(O)c(O)c(O)c1,Herpes simplex virus 2,"viral replication, RT-qPCR","BEAS-2B, acyclovir-resistant",,,IC50,1830 ± 60 nM
CC[C@H](C)[C@@H]1NC(=O)[C@H](CO)NC(=O)[C@H](CCCCN)NC(=O)[C@@H]2CSSC[C@@H](C(=O)N[C@@H](Cc3ccc(O)cc3)C(N)=O)NC(=O)[C@H](CCCCN)NC(=O)[C@@H]3CSSC[C@H](NC(=O)[C@H](CCCNC(=N)N)NC(=O)[C@H](CC(C)C)NC(=O)[C@H](CC(=O)O)NC(=O)[C@H](CC(=O)O)NC(=O)[C@H](CCC(=O)O)NC(=O)[C@H](CC(N)=O)NC(=O)[C@H](Cc4c[nH]c5ccccc45)NC(=O)C(C)(CC)NC(=O)CNC(=O)[C@H](CC(N)=O)NC(=O)[C@@H](NC(=O)CNC(=O)[C@H](Cc4ccccc4)NC(=O)CN)CSSC[C@H](NC(=O)[C@H](Cc4ccc(O)cc4)NC(=O)CNC(=O)CNC(=O)[C@H](CCCCN)NC(=O)[C@H](Cc4ccc(O)cc4)NC(=O)[C@H]4CCCN4C(=O)[C@@H]4CCCN4C1=O)C(=O)N[C@@H](C)C(=O)N[C@@H](CCCCN)C(=O)N1CCC[C@@H]1C(=O)NCC(=O)N[C@@H](Cc1ccccc1)C(=O)N[C@@H](C(C)C)C(=O)N3)C(=O)N[C@@H](Cc1c[nH]cn1)C(=O)N[C@@H](CC(N)=O)C(=O)N[C@@H](Cc1c[nH]cn1)C(=O)N2 (some centres unmarked),Streptococcus pneumoniae,,19F,24 h,,MBC,0.5 µM
CC[C@H](C)[C@H](NC(=O)[C@H](CCCNC(=N)N)NC(=O)[C@H](CO)NC(=O)[C@H](Cc1ccc(O)cc1)NC(=O)[C@@H](NC(=O)[C@@H](NC(=O)[C@H](C)NC(=O)CNC(=O)[C@H](CCCCN)NC(=O)[C@H](CCCCN)NC(=O)CCNC(=O)CCCCCNC(=O)[C@H](CCCNC(=N)N)NC(=O)CCCCCNC(=O)[C@H](CCCNC(=N)N)NC(=O)[C@H](CCCNC(=N)N)NC(=O)CCCCCNC(=O)[C@H](CCCNC(=N)N)NC(=O)[C@H](CCCNC(=N)N)NC(=O)CCCCCNC(=O)[C@H](CCCNC(=N)N)NC(=O)[C@H](CCCNC(=N)N)NC(=O)CCCCCNC(=O)[C@@H](N)CCCNC(=N)N)C(C)C)[C@@H](C)O)C(=O)N[C@@H](CO)C(=O)NCC(=O)N[C@@H](CCC(N)=O)C(=O)N[C@@H](Cc1ccc(O)cc1)C(=O)N[C@@H](CCCCN)C(=O)O,Escherichia coli,,ATCC 25922,"1 h, 37 °C, after 25% human serum",,MIC,6 µM
Cc1cc(Cl)cc(S(C)=NC#N)c1NC(=O)c1cc(Br)nn1-c1ncccc1Cl (centres unmarked),Spodoptera litura,leaf-dip,third instar larvae,"12.5 ppm, 96 h",,mortality,100%
Cc1cc(C(=O)Nc2nc3cccc(C)c3n2[C@H]2CCCCN(C(=O)/C=C/CN(C)C)C2)ccn1,Trypanosoma brucei,propidium iodide flow cytometry,bloodstream form,"concentration not given, 48 h",,cells in S phase,18.3%
CN(C)c1nc(NCc2ccc(F)cc2F)c(/N=N/c2ccc(Cl)cc2)c(N(C)C)n1,Ostrinia furnacalis,leaf dipping,,"500 mg/L, 96 h",,mortality,100%
COc1ccc(-c2[nH]c3ccccc3c2C[C@H]2NC(=O)[C@@H](CO)NC(=O)[C@@H](C(C)C)NC(=O)[C@H](Cc3ccccc3)NC(=O)[C@@H](C(C)C)NC(=O)[C@@H](C)NC(=O)[C@H](CO)NC2=O)c(OC)c1,Mycobacterium marinum,,,,,MIC90,60 µM
CC[C@H](C)[C@H](NC(=O)[C@H](CC(N)=O)NC(=O)[C@H](CC(C)C)NC(=O)[C@@H](NC(=O)[C@@H](N)Cc1ccccc1)[C@@H](C)CC)C(=O)N[C@@H](CC(C)C)C(=O)N[C@@H](CC(=O)O)C(=O)N[C@@H](CCCCN)C(N)=O,Gram-positive bacteria,,,,,geometric mean MIC,256 µM
Cc1ccc(Nc2ncnc3ccc(-c4ccc(S(=O)(=O)N5CCOCC5)cc4)cc23)cc1,Trypanosoma cruzi,"intracellular amastigote growth, β-galactosidase CPRG","3T3, Tulahuen, β-galactosidase-expressing","10 µM, 96 h",,inhibition,59%
CCOC(=O)C1(Cc2ccc(OC)cc2)Oc2cc(F)ccc2N(Cc2ccc(OC)cc2)C1=O (centres unmarked),Setaria viridis,"fresh weight, greenhouse postemergence",,"postemergence, 150 g ai/ha, 21 days",,inhibition,44 ± 1.47%
[O-][N+]1=C(c2ccsc2)C2=NCCCN2c2ccccc21,Clostridioides difficile,microbial growth,,,,MIC90,2 µg/mL
